Assay results from different studies.
Parts stem from different laboratories: compare values within a part only.

Study 1 — method: RNA Bind-n-Seq; form: RNA; sample: in vitro; tested at: 365 nM; reference: no-protein control; direction: higher = stronger binding
Target: RNA binding protein fox-1 homolog 2, RRM domain, GST-SBP tag (RBFOX2, Homo sapiens, UniProt O43251-10, residues 100-194)
Notes: natural RNA segment, single round, ends assumed
Shared flanks, not repeated: GGGAGUUCUACAGUCCGACGAUC … UGGAAUUCUCGGGUGCCAA
Residues (chain): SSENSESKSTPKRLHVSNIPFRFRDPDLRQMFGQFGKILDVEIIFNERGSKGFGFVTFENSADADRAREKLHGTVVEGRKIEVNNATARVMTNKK
Oligonucleotide | RBNS enrichment (R)
UCAUGGAUACAAAGCUAGGUUUGUCUCUCAACUCUCAUACUGCCAAAAGUUAAACUAUGAUGCUUAAAUAUGUUUCUCUGCCUUAUUUUAUAAGUGUGUGAUAAUAGAUA | 0.655
CAAAACGUAUGUGUGAAUGUAGUUAUAAUGCUUUUGAAAAAUUUUCCUUUUUCUAUAUCCCCUUAGUCCAGCCUCUCUUCUCAGACAUUUAGCUAUCUGCCUCUUUCCUU | 1.02
CAGGGCAGGCUCAGACCACUCGCUUCUUUCAGAUCUUUCUUGCAAUUAUGAUAACAUGAGAUUUGCUGUUGUGCUUUUAGAGAAAAGUCUGGACUCAGCCACAAACUCUA | 0.405
CCUUCCUGUCUAGGGAGAAUUGCUGCUAGUAAGGUCAGUUUGCAAUGUUCAGCUUUAGAUAUGUGUCGUAAUGGGAGUCUGAAAACUGUAAUAAACUGUAUUCAUAUCCU | 0.548
UCCCUGAGAGGACUUAAAAGCAGAAGGAAACCGAGAUGCUUCCCGCAGCCGUGGACGAUUCUCCAGGACUCUUUUUUUACCUUGAGCACUUGCCUCGUGAGACUUCAUAG | 0.429
GUCUUUGAGCAAGUAGGCAAGAUAAGCUCUUCCUUCGUCACAGCCAUGACCAUCAGGUUAGUAACCGAGACUUUGCCCUGGUGAGCUGAGAGUAGACCUGGUUACCGGCA | 0.727
GUCACAUCAGCAUCUUUCUGCUUUGAAAACUCUCACAGCUGUGGCUGCUUCACUUAGAUGCAGUGAGACACAUAGUUGGUGUUCCGAUUUUCACAUCCUUCCAUGUAUUU | 0.426
CUCCUUUUCUAAAGGCUGAUCCAACUACACUUGUGGGCUAUUUUUCCAAGCUUUGUGUGAAACUUGAUGACAUUGGGCCAGCAAAAUGCAAAGAAGACUAUAGUUUCAGG | 0.315

Study 2 — method: competition protein-binding microarray; form: double-stranded DNA, one strand shown; sample: in vitro; tested at: 2 µM; with: Cbf1 competitor, 0.05 µM; direction: higher = stronger binding; shared flanks, not repeated: … GTCTTGATTCGCTTGACGCTGCTG
Target: Phosphate system positive regulatory protein PHO4, full length, GST-tagged (PHO4, Saccharomyces cerevisiae, UniProt P07270, residues 1-312)
Notes: whole 60-bp probe, lowest competitor level
Construct (chain): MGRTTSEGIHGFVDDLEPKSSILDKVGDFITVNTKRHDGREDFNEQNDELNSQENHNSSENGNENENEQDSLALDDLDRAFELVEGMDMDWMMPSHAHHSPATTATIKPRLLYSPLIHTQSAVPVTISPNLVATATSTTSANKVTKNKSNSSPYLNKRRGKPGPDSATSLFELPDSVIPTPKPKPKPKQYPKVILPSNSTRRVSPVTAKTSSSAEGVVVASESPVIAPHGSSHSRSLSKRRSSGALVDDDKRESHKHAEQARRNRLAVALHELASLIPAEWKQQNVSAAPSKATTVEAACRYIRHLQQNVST
Oligonucleotide | fluorescence intensity [a.u.]
TGCGCAACAACTTGGGGGGTGGGTGTATGTCTAGAA | 5710
TTTGTCCTCGCACTCCGCGTGGTGAACTTGTTCTTG | 8740
GCCAGAAGTTCCTGTCACACTCTGCAAATTATCCCG | 4820
TGCGCAACAACTTGTCAAGTGGGTGTATGTCTAGAA | 5000
ATAGGTGCCATCACAATCGTGCCGAAATCTACCACT | 7790
TGCGCAACAACTTTTCACGTGTGTTTATGTCTAGAA | 13300
TGGATCTTCCACTGTCATGCTAATTGGTCTTAGGTT | 4530
GACGTACGCGCCTTCCACGTGTAACTCTTGTCTCTC | 15000
TTTTTGAGACGTACTGGCGTGCTAAATAGAGTGGTT | 6950
CCGGAACTGACTTTTATCGTGATGGGAACTTTGGGT | 3380
CCCTTTCCAACGCCCTACGTGCCAGGCCTCGACCGG | 7410
CTTCAACAACAAGTGTCTGTGACGGCTTCAAGGGTC | 4270
TGGAATGCATAAAAGAATGTGATGAAGTGTTTCCAA | 5130
TTCTGATAAGCCCATCACGTGACGGTGGTTCTAAGA | 13100
TCTCTGTTGCAATCTCACGTGAAAAAGTGGATTCGC | 9730
AAATTACTAAGTTGTCACTCCACTTACCCCGTATGA | 3830
ATAGGTTCAAACTTCGGCGTGCTAAAAGTATATACC | 7510
GGAACCGTCTGCAGCGATGTGACGGGTCTTGTAACC | 3400
GCTCTAGTAATTGTCTACGTGCCGAATCGTTTCTCT | 7130

Study 3 — method: protein-binding microarray; form: double-stranded DNA, one strand shown; sample: in vitro; tested at: 250 nM; notes: 60-bp whole probe; with: salmon DNA 0.4 mg/ml; reference: random background probes; direction: higher = stronger binding; shared flanks, not repeated: GCCTAGCAC … GTCTTGATTCGCTTGACGCTGCTG
Target: Interferon regulatory factor 5, full length, phosphomimetic (IRF5, Homo sapiens, UniProt Q13568-2, residues 1-514, K96S/S451D/S453D/S456D/S462D)
Oligonucleotide | log fluorescence
GGTTTTTTTTTAATTGAAATGTGCTAG | 0.786 z-score
ATACCTTAGGTTTTCTGGTTGTGCTAG | 0.488 z-score
TTAGGACTGGGGTTGCGGTTAGTGCTA | -0.193 z-score
GGCTTGACGTCATCCCCTTGGTGCTAG | -0.456 z-score
GACGGACGGGGGTATCGGGACGTGCTA | 1.24 z-score
GGCGGTCTCGGTCTCGGGACGTGCTAG | 0.189 z-score
GGGATTTTTAGTTAGAAAAAGTGCTAG | 0.113 z-score
GACGTTATCAGACTGGAGACGTGCTAG | 0.0763 z-score
TCAACTCTCAGAATCTCACTGTGCTAG | 0.418 z-score
GACGTACTGGGGTATCGGGACGTGCTA | 0.0441 z-score
TTAAGTTTCGGGACTGGGTTAGTGCTA | 7.77 z-score
TTAGCACTGGGTTTCGGTTAGTGCTAG | 8.28 z-score
TCATTTTTCCCTCTGGAACTGTGCTAG | 0.911 z-score
GGTGGTCTGGGACCCTCCCCGTGCTAG | -0.461 z-score
GACGGTCACGGTATCGGGACGTGCTAG | 0.437 z-score
ACCCATTGAGATTTTCATTATGTGCTA | 0.878 z-score
TCAAACATCCCAATGGCACTGTGCTAG | -0.214 z-score
TTAGAACTGGAGACTGGATTAGTGCTA | -0.35 z-score
TTAGGACTGAACTTTCGGTTAGTGCTA | 9.41 z-score

Study 4 — method: protein binding microarray; form: double-stranded DNA, one strand shown; sample: in vitro; tested at: not given; reference: not given; direction: higher = stronger binding
Target: Histone acetyltransferase KAT6A, winged helix 1, GST fusion (KAT6A, Homo sapiens, UniProt Q92794, residues 1-85)
Notes: 8-mer, flanks averaged, mean of 2 arrays, mostly near background
Target sequence (chain): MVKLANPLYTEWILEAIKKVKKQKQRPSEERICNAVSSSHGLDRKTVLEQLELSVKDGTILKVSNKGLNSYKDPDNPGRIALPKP
Oligonucleotide | E-score
CACGCTAC | 0.0871
CATGCATA | 0.0264
AACAAGGG | -0.034
AACGTTAG | 0.111
CCTAAAAA | -0.164
AGTAGAGC | -0.0855
AAAAACAG | -0.193
CGCTTATC | 0.132
GTCGGTGA | 0.0788
AGGGGTAA | -0.273
CCGCCATA | 0.178
AAGCAGAA | -0.0934
CTGATCGA | -0.159
CTGAGTCC | -0.0653
AATAAAGC | -0.0735
GTTGTGCA | -0.258
ACATTGGT | -0.255
CAATTAAG | 0.0364
CATTCACA | -0.354
CGCTTTTC | 0.186
AGGGGTTC | -0.169
CCCGTAGG | 0.297
AACATCAG | -0.221
GATGCCGA | 0.163
CTGTATAA | -0.0665

Study 5 — method: universal PBM; form: double-stranded DNA, one strand shown; sample: in vitro; tested at: 600 nM; direction: higher = stronger binding
Target: Sal-like protein 4, full length isoform A (SALL4, Homo sapiens, UniProt Q9UJQ4, residues 1-1053)
Chain of UniProt Q9UJQ4 (whole entry, looked up): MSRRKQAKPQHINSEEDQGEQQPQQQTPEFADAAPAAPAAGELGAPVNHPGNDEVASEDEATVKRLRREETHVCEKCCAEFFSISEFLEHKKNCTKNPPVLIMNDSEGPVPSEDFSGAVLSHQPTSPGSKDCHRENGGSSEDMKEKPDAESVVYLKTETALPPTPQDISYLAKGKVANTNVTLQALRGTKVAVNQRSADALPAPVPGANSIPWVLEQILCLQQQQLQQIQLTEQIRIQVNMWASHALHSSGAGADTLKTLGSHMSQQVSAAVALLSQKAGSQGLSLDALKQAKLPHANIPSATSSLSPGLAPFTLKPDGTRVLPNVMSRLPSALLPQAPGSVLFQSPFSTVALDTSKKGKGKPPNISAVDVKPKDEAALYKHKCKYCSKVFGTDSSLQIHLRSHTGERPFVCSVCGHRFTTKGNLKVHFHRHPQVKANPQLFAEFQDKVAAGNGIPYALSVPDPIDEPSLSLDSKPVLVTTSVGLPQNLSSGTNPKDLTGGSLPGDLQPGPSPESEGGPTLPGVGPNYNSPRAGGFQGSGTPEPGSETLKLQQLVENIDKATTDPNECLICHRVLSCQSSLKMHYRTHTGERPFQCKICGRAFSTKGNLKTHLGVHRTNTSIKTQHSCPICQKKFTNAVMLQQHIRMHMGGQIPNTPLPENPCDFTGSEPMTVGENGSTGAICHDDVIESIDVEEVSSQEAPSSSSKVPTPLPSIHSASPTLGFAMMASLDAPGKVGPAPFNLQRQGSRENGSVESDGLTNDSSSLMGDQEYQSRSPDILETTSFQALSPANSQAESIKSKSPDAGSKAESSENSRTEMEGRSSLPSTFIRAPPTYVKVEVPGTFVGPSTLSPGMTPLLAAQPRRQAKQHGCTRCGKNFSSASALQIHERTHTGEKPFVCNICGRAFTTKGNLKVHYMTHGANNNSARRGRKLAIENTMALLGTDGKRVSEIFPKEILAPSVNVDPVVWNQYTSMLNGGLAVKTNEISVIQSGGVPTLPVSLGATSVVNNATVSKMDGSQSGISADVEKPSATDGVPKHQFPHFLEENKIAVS
Notes: 8-mer, flanks averaged, mean of replicates
Oligonucleotide | E-score
AAAAGAAC | 0.0436
ACTACATA | 0.289
CACCGGAG | -0.267
ACAAGCAA | 0.139
AAGTTACA | 0.119
CACGGGTC | -0.25
AGCCGGTA | -0.29
AGCCCGGA | -0.365
TACGTAGA | 0.109
AAATGGCA | 0.138
CGTTGCAC | -0.108
CTTATGCA | 0.231
ATAAGGTC | 0.211
CTGACAAA | 0.132
ACTGACTG | -0.164
GTCGCCAA | -0.169

A few entries again (study 4):
Oligonucleotide | E-score
GTCGGTGA | 0.0788
AGGGGTAA | -0.273
CCGCCATA | 0.178
AAGCAGAA | -0.0934
CTGATCGA | -0.159
CTGAGTCC | -0.0653
AATAAAGC | -0.0735
GTTGTGCA | -0.258
ACATTGGT | -0.255
CAATTAAG | 0.0364
CATTCACA | -0.354
CGCTTTTC | 0.186
AGGGGTTC | -0.169
CCCGTAGG | 0.297
AACATCAG | -0.221
